Results pooled from the literature.
Values joined by “and” are separate records of one study, mostly repeats; a detail may differ. Numbers after ± are the reported error.

Oc1ccc2nc1CNCCNCCNC2  log beta ML (potentiometric titration; 298 K, I 0.15 M NaCl, added: Cu2+): 22.7
FC(F)(F)Oc1ccc(/N=c2\oc3ccccc3cc2-c2ccccc2)cc1  oedema reduction (rat, formalin paw oedema; intraperitoneal, 10 mg/kg, 2 h): 37.5 ± 2.5%
O=C1CCN(Cc2ccccc2)CC1C(C[N+](=O)[O-])c1ccccc1 (centres unmarked)  tail flick response (tail immersion test; BALB/c mice; ip, 50 mg/kg, 1.25 h): 63.5%
O=C(O)c1ccc(/C=C2\SC(=S)N(Cc3cccc(C(F)(F)F)c3)C2=O)cc1  TNF-α and MCP-1 production (mouse, high-fat diet, liver and white adipose; dose not given): decreased
COc1ccc(C2CC(c3ccc(C)cc3)=Nc3ccccc3S2)cc1OC (centres unmarked)  blood glucose (rat, normal, overnight fasted; oral, 10 mg/kg, 120 min, oral glucose tolerance test, added: glucose 3 g/kg oral): 109 ± 4.39 mg/dL
CC(=O)Nc1ccc(OC(=O)CCC(=O)[O][Pt-2]23([O]C(=O)CCC(=O)Oc4ccc(NC(C)=O)cc4)([NH2+][C@@H]4CCCC[C@H]4[NH2+]2)[O]C(=O)C(=O)[O]3)cc1  mature dendritic cells (BALB/c mouse, 4T1 tumour, tumour; dose not given): 59.2%
C[C@@H](O)[C@H](N)C(=O)N1CCC[C@H]1C(=O)NCC(=O)NCC(=O)O  ΔS‡ at 298.15 K (diketopiperazine formation, transition state theory; 1-propanol; 70, 80, 90 °C, 0.5% acetic acid): -74 ± 8 J/(mol·K)
CCNC(=S)NNS(=O)(=O)c1ccc2c(c1)n(C)c(=O)c(=O)n2C  blood glucose (IPGTT; HFD/STZ diabetic male albino mice; 10 mg/kg, 3 h): 95.3 ± 5.48 mg/dL
COc1cc2c(NC3CCN(C(C)C)CC3)cc(N3CCOCC3)nc2cc1OCCCN1CCCC1  time in open field centre (3xTg mice 12.25-month-old; dose not given, 6 weeks intermittent): no effect
CN(C)c1cc2ccccc2c(N)n1  fibrotic area (ICR mouse, CCl4 liver fibrosis; intraperitoneal, 1 and 3 mg/kg daily): decreased
CCCCCCCCCCCCCCCC(=O)NCCCC[C@H](N)C(=O)N[C@@H](CC(=O)O)C(=O)N[C@H](C(=O)N[C@@H](Cc1c[nH]cn1)C(=O)N[C@@H](Cc1ccccc1)C(=O)N[C@@H](CCCNC(=N)N)C(=O)N[C@H](C(=O)N[C@@H](Cc1ccccc1)C(=O)N[C@@H](CCCNC(=N)N)C(=O)N[C@@H](CO)C(=O)N[C@@H](Cc1c[nH]cn1)C(=O)N[C@@H](CO)C(=O)N[C@@H](CC(=O)O)C(=O)N[C@@H](Cc1ccc(O)cc1)C(=O)N[C@@H](CCCNC(=N)N)C(=O)N[C@@H](CCCNC(=N)N)C(=O)N[C@H](C(=O)O)[C@@H](C)CC)[C@@H](C)O)[C@@H](C)O  liver weight (C57BL/6J mouse, MCD diet; intraperitoneal, 1.2 nmol/g, 3 weeks, 3 times weekly): 1.28 ± 0.08 g
COc1cc(/C=C/C(=O)OCCCC[P+](c2ccccc2)(c2ccccc2)c2ccccc2)ccc1O  cytochrome c release (immunoblotting; rat liver mitochondria; 10 µM, 15 min; reference: untreated): ~2.5 fold
C=CC(=O)Nc1cc(Nc2nccc(-n3ccc4nc(OC)ccc43)n2)c(OC)cc1N(C)CCN(C)C  phospho-EGFR (BALB/c nude mouse, H1975 xenograft; oral, 60 mg/kg, 24 h): inhibited
COc1cc(CN2CCN(c3ccc(C)cc3)CC2)c2cc3[n+](cc2c1O)CCc1cc2c(cc1-3)OCO2  FRAP absorbance (ferric reducing power, FRAP; 10 µg/mL, 30 min; higher is greater reducing power): 2.22 ± 0.26 a.u.
CNc1oc(-c2cccc3ccccc23)nc1C#N  glucose tolerance (glucose tolerance test; CD1 mice; ip, 24 mg/kg daily, 2 weeks; reference: untreated): no effect
NCCCC[C@H](N)C(=O)N1CCC[C@H]1C(=O)NCC(=O)NCC(=O)O  ΔS‡ at 298.15 K (diketopiperazine formation, transition state theory; 1-propanol; 70, 80, 90 °C, 0.5% acetic acid): -4 ± 1 J/(mol·K)
CN1CCN(CC(=O)Nc2nccs2)CC1  inhibition in vivo (paw oedema; mouse; intraperitoneal, 200 µmol/kg): 61%
C=CCC1C(=O)C=C(OC)C2(OC)C(C)C(c3ccc4c(c3)OCO4)OC12 (single isomer, unassigned; (-))  mRNA level (item: SHP, BSEP; mouse, bile duct ligation, liver; dose not given): increased
COc1ccc(C2CC(c3ccc(C)cc3)=Nc3ccccc3S2)cc1 (centres unmarked)  HDL cholesterol (Wistar rat, STZ-induced diabetes, serum; 20 mg/kg, 28 days): 55.2 ± 3.67 mg/dL
N[C@@H](CCC(=O)O)C(=O)N1CCC[C@H]1C(=O)NCC(=O)NCC(=O)O  ΔS‡ at 298.15 K (diketopiperazine formation, transition state theory; 1-propanol; 70, 80, 90 °C, 0.5% acetic acid): -83 ± 21 J/(mol·K)
CCCCCCOC(=O)Cc1c(C)n(C(=O)c2ccc(Cl)cc2)c2ccc(OC)cc12  latency of nociceptive response (hot plate test; BALB/c mice; 75 mg/kg, 0 min): 9.58 ± 0.46 s
CCOC(=O)[C@H](C)NP(=O)(N[C@@H](C)C(=O)OCC)c1ccc(-c2nc(N)sc2CC(C)C)o1  blood glucose and lactate (FBP1 G27P knock-in mice, blood; intraperitoneal, 75 mg/kg): no effect
FC(F)(F)c1ccccc1/N=c1\oc2ccccc2cc1-c1ccccc1  oedema reduction (rat, formalin paw oedema; intraperitoneal, 20 mg/kg, 1 h): 30.7 ± 2.4%
CCCC[C@H](NC(=O)[C@H](C)NC(=O)[C@H](CO)NC(=O)[C@H](CC(C)C)NC(=O)[C@H](CCCCN)NC(=O)[C@]1(C)CCCC=CCCCCCC[C@@](C)(NC(=O)[C@H](CCC(=O)O)NC(=O)[C@H](CC(C)C)NC(=O)[C@H](CO)NC(=O)[C@]2(C)CCCC=CCCCCCC[C@@](C)(NC(=O)[C@H](CS)NC(=O)[C@H](CCC(N)=O)NC(=O)[C@H](C)NC(=O)[C@H](CCCNC(=N)N)NC(C)=O)C(=O)N[C@@H](CC(C)C)C(=O)N[C@@H](CCC(N)=O)C(=O)N[C@@H](CCCNC(=N)N)C(=O)N[C@@H](CCC(=O)O)C(=O)N[C@@H](CCCC)C(=O)N[C@@H](C(C)C)C(=O)N2)C(=O)N[C@@H](CCC(N)=O)C(=O)N[C@@H](CC(C)C)C(=O)N[C@@H](C(C)C)C(=O)N[C@@H](CC(C)C)C(=O)N[C@@H](CCC(=O)O)C(=O)N[C@@H](CCCCN)C(=O)N1)C(=O)N[C@@H](CCC(N)=O)C(=O)N[C@@H](C)C(=O)N[C@@H](Cc1c[nH]cn1)C(N)=O  Tcon cell proliferation (Treg-mediated suppression, flow cytometry; Treg and Tcon cells, mouse; dose not given, 3 d, Treg:Tcon 1:1): 74.1%
CC[C@H](C)[C@H](N)C(=O)N1CCC[C@H]1C(=O)NCC(=O)NCC(=O)O  ΔS‡ at 298.15 K (diketopiperazine formation, transition state theory; 1-propanol; 70, 80, 90 °C, 0.5% acetic acid): -64 ± 6 J/(mol·K)
Cc1csc(NC(=O)CCN2CCC(O)CC2)n1  inhibition in vivo (paw oedema; mouse; intraperitoneal, 200 µmol/kg): 27.5%
NC(=O)C[C@H](N)C(=O)N1CCC[C@H]1C(=O)NCC(=O)NCC(=O)O  enthalpy of activation (diketopiperazine formation, transition state theory; 1-propanol; concentration not given, 70, 80, 90 °C, 0.5% acetic acid): 17.9 ± 0.478 kcal/mol
COc1cc(CN2CCN(c3ccc(C(F)(F)F)cc3)CC2)c2cc3[n+](cc2c1O)CCc1cc2c(cc1-3)OCO2  FRAP absorbance (ferric reducing power, FRAP; 10 µg/mL, 30 min; higher is greater reducing power): 0.004 ± 0.56 a.u.
[2H]c1c(NS(C)(=O)=O)c([2H])c2c(C(=O)c3ccc(OCCCN(CCCC)CCCC)cc3)c(CCCC)oc2c1[2H]  time to AF termination (dog, persistent atrial fibrillation model, conscious; intravenous, 3 mg/kg, hydrochloride salt): 6.1 h and 12.3 h
O=C(O[C@@H]1Cc2c(O)cc(O)cc2O[C@@H]1c1cc(O)c(O)c(O)c1)c1cc(O)c(O)c(O)c1  substrate inhibition onset (sulfation, substrate; human liver cytosol): > 40 µM
C=C(c1cc(F)c(C(=O)O)c(F)c1)c1cc2c(cc1C)C(C)(C)CCC2(C)C  log2 fold change (RNA sequencing, item: Aurkb mRNA; rat, brain; dose not given, 24 h, single dose; reference: vehicle): 0.9
COc1c2c(cc3oc(CO)cc(=O)c13)O[C@H](C(C)(C)O)C2  onset of latency increase (analgesia, hot plate test; mouse; oral, dose not given): 0.5 h
CC[C@H](C)[C@@H]1NC(=O)[C@H](Cc2ccccc2)NC(=O)[C@H](CCC(=O)O)NC(=O)[C@H](CCCNC(=N)N)NC(=O)CNC(=O)[C@@H](NC(=O)[C@H](CC(C)C)NC(=O)[C@H](CCCNC(=N)N)NC(=O)[C@@H](NC(=O)CNC(=O)[C@H](Cc2ccc(O)cc2)NC(=O)[C@@H]2CCCN2C(=O)[C@H](C)NC(=O)[C@H](C)NC(=O)[C@@H](N)CCCNC(=N)N)C(C)C)CSSC[C@@H]2NC(=O)[C@@H](NC(=O)[C@H](CO)NC(=O)[C@H](CO)NC(=O)[C@H](CO)NC(=O)[C@H](CC(C)C)NC(=O)CNC(=O)[C@H](C)NC(=O)[C@H](CC(C)C)NC(=O)[C@@H](NC(=O)[C@@H](N)CC(=O)O)C(C)C)CSSC[C@H](NC(=O)CNC(=O)[C@H](Cc3c[nH]c4ccccc34)NC(=O)[C@H](CCCCN)NC2=O)C(=O)N[C@@H](CO)C(=O)N[C@@H](CCCCN)C(=O)N[C@@H](CO)C(=O)N[C@@H](CCC(=O)O)C(=O)N[C@@H]([C@@H](C)CC)C(=O)N[C@@H](CO)C(=O)N[C@@H](CO)C(=O)N[C@@H](CC(C)C)C(=O)N[C@H](C(=O)O)CSSC[C@@H](C(=O)NCC(=O)NCC(=O)N[C@@H](CO)C(=O)N[C@@H](CCCNC(=N)N)C(=O)N[C@@H](Cc2c[nH]c3ccccc23)C(=O)O)NC(=O)[C@H]([C@@H](C)O)NC(=O)[C@H](Cc2ccccc2)NC(=O)[C@H]([C@@H](C)CC)NC(=O)[C@H](C(C)C)NC(=O)[C@H](C)NC(=O)[C@H](CCCNC(=N)N)NC1=O  swimming behaviour (repeated forced swim test; female Sprague-Dawley rats; intranasal daily, 275 µg/kg; reference: vehicle): no effect
O=c1[nH]c(N2CCC3(CC2)CN(CCO)c2cc(F)cc(F)c23)nc2c1CCCC2  active β-catenin level (NOD-SCID mouse, xenograft, tumour nuclear extract; oral or intraperitoneal, dose not given, 4 h after last dose): decreased
NC(=O)CC[C@H](N)C(=O)N1CCC[C@H]1C(=O)NCC(=O)NCC(=O)O  ΔS‡ at 298.15 K (diketopiperazine formation, transition state theory; 1-propanol; 70, 80, 90 °C, 0.5% acetic acid): -31 ± 5 J/(mol·K)
CC[C@H]1[C@@H](O)[C@@H]2[C@H](CC[C@]3(C)[C@@H]([C@H](C)CCOS(=O)(=O)[O-])CC[C@@H]23)[C@@]2(C)CC[C@@H](O)C[C@@H]12.[Na+]  liver weight (ob/ob NASH mouse model; oral, 3 mg/kg once daily, 8 weeks): 4.9 ± 0.1 g
Cc1ccc(C(=O)Nc2ccc(CP(=O)(O)O)cc2CP(=O)(O)O)cc1NC(=O)c1cccc(NC(=O)Nc2cccc(C(=O)Nc3cc(C(=O)Nc4ccc(CP(=O)(O)O)cc4CP(=O)(O)O)ccc3C)c2)c1  PT (human plasma; 235 µM): 14.2 ± 2.3 s
N#Cc1ccc(-c2cc(=O)c3ccc4[nH]c(C(F)(F)F)nc4c3o2)cc1  mature active delta-secretase level (immunoblotting; 5xFAD mice, brain; dose not given): decreased
C[C@H](NC(=O)COC(=O)[C@H](C)NC(=O)CO)C(=O)O  depolymerization rate constant (water; pH 2, 25 °C): 0.001 h⁻¹
CCCc1nc2cc(C(=O)N3CCC4(CC3)CC(=O)c3cc5c(cc3O4)OC(C)(C)CC5)cc(C)c2[nH]1  mRNA level (item: F4/80, Cxcl2, Cxcl10; C57BL/6J male mouse, HFD-induced NASH, liver; intragastric, dose not given, daily; reference: vehicle): decreased
CCC1CC2C(C)=CC3C(=O)CCCC3C=CC(C)=CC2C(=O)O1 (centres unmarked)  plaque number reduction (thioflavin S staining, item: amyloid-beta plaques; 5XFAD mouse (male, 8 months), hippocampus; oral, 30 mg/kg three times per week, one month; reference: vehicle): 11.2%
O=C1NC(=O)C(C2CCOc3cc(Oc4ccc(C(F)(F)F)cc4Cl)ccc32)S1 (centres unmarked)  GLP-1 release (item: total GLP-1; colonic crypt cultures, wild type, mouse, ex vivo; 1 µM, 2 h; reference: vehicle): 2.8 ± 0.42 fold change
C=C(c1ncc(C(=O)O)cn1)c1cc2c(cc1C)C(C)(C)CCC2(C)C  log2 fold change (RNA sequencing, item: Upp1; rat, brain; dose not given, 24 h; reference: vehicle): -0.7
CC(C)C1=C(OC(=O)CCc2ccccc2)C(=O)C2=C(C=C[C@H]3C(C)(C)CCC[C@]23C)C1=O  HORAC (hydroxyl radical absorbance capacity, fluorometric): 0.63 Trolox equivalents
CC1Cc2ccccc2N1C(=O)CN1CCN(Cc2ccccc2)CC1 (centres unmarked)  locomotor activity (open field; D4 dopamine receptor knockout mice; ip, 1 mg/kg): no effect
CN1CCN(CC(=O)Nc2nc(-c3ccccc3)cs2)CC1  inhibition in vivo (paw oedema; mouse; intraperitoneal, 200 µmol/kg): 64.3%
Cn1c(=O)c(=O)n(C)c2cc(S(=O)(=O)Nc3ccc(S(=O)(=O)Nc4ncccn4)cc3)ccc21  blood glucose (IPGTT; HFD/STZ diabetic male albino mice; 10 mg/kg, 2 h): 117 ± 7.2 mg/dL

Excerpt of the above:
COc1ccc(C2CC(c3ccc(C)cc3)=Nc3ccccc3S2)cc1OC (centres unmarked)  blood glucose (rat, normal, overnight fasted; oral, 10 mg/kg, 120 min, oral glucose tolerance test, added: glucose 3 g/kg oral): 109 ± 4.39 mg/dL
NC(=O)CC[C@H](N)C(=O)N1CCC[C@H]1C(=O)NCC(=O)NCC(=O)O  ΔS‡ at 298.15 K (diketopiperazine formation, transition state theory; 1-propanol; 70, 80, 90 °C, 0.5% acetic acid): -31 ± 5 J/(mol·K)
O=C(O[C@@H]1Cc2c(O)cc(O)cc2O[C@@H]1c1cc(O)c(O)c(O)c1)c1cc(O)c(O)c(O)c1  substrate inhibition onset (sulfation, substrate; human liver cytosol): > 40 µM
